{"data": "Measurements of several laboratories", "cell line": "MDA-MB-231", "note": "Protocols differ between the studies behind these lines. Values joined by “and” are separate records of one study, mostly repeats; a detail may differ. Numbers after ± are the reported error."}
{"SMILES": "C[C@@H]1CC[C@@H]([C@@](O)(CNCc2ccc(F)cc2)COCc2ccc(F)cc2)[C@H](OCc2ccc(F)cc2)C1", "test": "cell growth or viability, MTT", "setting": "30 µM, 72 h", "quantity": "inhibition", "value": "99.3%"}
{"SMILES": "Oc1ccnc(-c2cc(O)ccn2)c1.[Cl-].[Cl-].[Ru+2].c1ccc(-c2ccnc3c2ccc2c(-c4ccccc4)ccnc23)cc1.c1ccc(-c2ccnc3c2ccc2c(-c4ccccc4)ccnc23)cc1", "test": "cell growth or viability", "setting": "dark", "quantity": "EC50", "value": "30 µM"}
{"SMILES": "CCCNC(=O)[C@H]1O[C@@H]1C(=O)N[C@H](C(=O)N1CCC[C@H]1C(=O)OCC1=C2C(C)=CC(C)=[N+]2[B-](C)(C)n2c(C)cc(C)c21)[C@@H](C)CC", "test": "cell viability, MTT", "setting": "4 h, dark", "quantity": "EC50", "value": "> 100 µM"}
{"SMILES": "CC(=O)OC[C@H]1O[C@@H](n2cc(CSc3nc4ccccc4n3Cc3cn([C@@H]4O[C@H](COC(C)=O)[C@@H](OC(C)=O)C(OC(C)=O)[C@H]4OC(C)=O)nn3)nn2)[C@H](OC(C)=O)C(OC(C)=O)[C@@H]1OC(C)=O (stereo in doubt)", "test": "MTT", "setting": "250 ppm", "quantity": "cytotoxicity", "value": "93%"}
{"SMILES": "CCCc1cc2cc(-n3nc(C(F)(F)F)c4c3CC(C)(C)CC4=O)cc(N3CCC(O)CC3)c2c(=O)[nH]1", "test": "Western blot", "setting": "concentration not given, 24 h", "quantity": "Hsp90α and Hsp90β levels", "value": "no effect"}
{"SMILES": "CC(=O)[O][Pd][c]1cc(C)ccc1N1N=C(C)C(C)(C)C1=O.CC(=O)[O][Pd][c]1cc(C)ccc1N1N=C(C)C(C)(C)C1=O", "test": "annexin V/PI flow cytometry", "setting": "25 µM, 24 h", "quantity": "late apoptotic cells", "value": "8.48 ± 0.52%"}
{"SMILES": "COc1ccccc1-c1ccncc1C(=O)Nc1nnc(OCc2ccc(Cl)cc2)s1", "setting": "1.5 µM", "quantity": "colony count", "value": "34.5 and 23"}
{"SMILES": "COc1cccc2c1cc1c3c(cc4c(c32)OCO4)[C@@H]2c3c4c5c(cc6c(c5c5cccc(OC)c35)OCO6)CCN4[C@@H]2N1C (racemic)", "test": "cytotoxicity, MTT", "setting": "50 µg/mL, 48 h", "quantity": "inhibition", "value": "< 50%"}
{"SMILES": "CCN(C(=O)c1cc(F)ccc1Oc1nncnc1N1CCC2(C1)CN([C@H](CCCN(C)CCOC)C(C)C)C2)C(C)C", "test": "cell growth or viability", "setting": "7 days", "quantity": "GI50", "value": "> 10 µM"}
{"SMILES": "COc1ccc(CNC[C@](O)(COCc2ccccc2)[C@@H]2CC[C@@H](C)C[C@H]2OCc2ccccc2)cc1", "test": "cell growth or viability, MTT", "setting": "30 µM, 72 h", "quantity": "inhibition", "value": "100%"}
{"SMILES": "CCc1c(C)c2ccc(OC(C)C)c(C)c2oc1=O", "test": "cell growth or viability, MTT", "setting": "500 µg/mL", "quantity": "viability", "value": "5.84%"}
{"SMILES": "COc1ccc(COC[C@](O)(CNCc2ccccc2)[C@@H]2CC[C@@H](C)C[C@H]2OCc2ccc(OC)cc2)cc1", "test": "cell growth or viability, MTT", "setting": "10 µM, 72 h", "quantity": "inhibition", "value": "97.5%"}
{"SMILES": "CCCNC(=O)[C@H]1O[C@@H]1C(=O)N[C@H](C(=O)N1CCC[C@H]1C(=O)OCC1=C2C(C)=CC(C)=[N+]2[B-](CC)(CC)n2c(C)cc(C)c21)[C@@H](C)CC", "test": "cell viability, MTT", "setting": "72 h, dark", "quantity": "EC50", "value": "> 50 µM"}
{"SMILES": "C[C@@H]1CC[C@@H]([C@@](O)(CNCc2ccc(F)cc2)COCc2ccccc2)[C@H](OCc2ccccc2)C1", "test": "cell growth or viability, MTT", "setting": "10 µM, 72 h", "quantity": "inhibition", "value": "94.8%"}
{"SMILES": "CC(=O)[O][Pd][c]1ccccc1-n1nc(C)cc1C.CC(=O)[O][Pd][c]1ccccc1-n1nc(C)cc1C", "test": "JC-1 flow cytometry", "setting": "25 µM, 24 h", "quantity": "cells with decreased ΔΨm", "value": "19.4 ± 1.14%"}
{"SMILES": "CC(=O)OCC1=C2C(C)=CC(C)=[N+]2[B-](C)(C)n2c(C)cc(C)c21", "test": "cell viability, MTT", "setting": "concentration not given, 72 h, irradiated 15 min up to 470 nm", "quantity": "EC50", "value": "> 50 µM"}
{"SMILES": "C[C@@H]1CC[C@@H]([C@@](O)(CNCc2ccccc2F)COCc2ccccc2)[C@H](OCc2ccccc2)C1", "test": "cell growth or viability, MTT", "setting": "30 µM, 72 h", "quantity": "inhibition", "value": "92.5%"}
{"note": "A few entries again:"}
{"SMILES": "CCc1c(C)c2ccc(OC(C)C)c(C)c2oc1=O", "test": "cell growth or viability, MTT", "setting": "500 µg/mL", "quantity": "viability", "value": "5.84%"}
{"SMILES": "COc1ccc(COC[C@](O)(CNCc2ccccc2)[C@@H]2CC[C@@H](C)C[C@H]2OCc2ccc(OC)cc2)cc1", "test": "cell growth or viability, MTT", "setting": "10 µM, 72 h", "quantity": "inhibition", "value": "97.5%"}
